{"data": "Published values of several laboratories", "note": "Protocols differ between the studies behind these lines. Values joined by “and” are separate records of one study, mostly repeats; a detail may differ. ± gives the spread as reported."}
{"SMILES": "O=C(/C=C/c1ccc(O)cc1)c1ccc(O)cc1O", "target": "HDAC class I, II and IV (human)", "test": "enzyme activity, inhibitor, fluorometric", "test system": "K562 cell extract", "conditions": "1 h, 37 °C", "IC50": "110 µM"}
{"SMILES": "O=c1c(O)c(-c2ccc(O)cc2O)oc2c(Br)c(O)c(Br)c(O)c12", "target": "BSA glycation", "test": "fluorescence", "conditions": "with: methylglyoxal", "IC50": "10.1 to 100 µM"}
{"SMILES": "O=C(/C=C/c1ccc(O)cc1)c1ccccc1", "target": "HDAC class I, II and IV (human)", "test": "enzyme activity, inhibitor, fluorometric", "test system": "K562 cell extract", "conditions": "1 h, 37 °C", "IC50": "> 1000 µM"}
{"SMILES": "Oc1ccc(-c2cc(-c3ccc(OCCN4CCCCC4)cc3)n(-c3ccc(O)cc3)n2)cc1", "target": "TLR2 (mouse)", "test": "TNF-alpha production, inhibitor", "test system": "RAW264.7", "conditions": "6 h, with: Pam3Cys 100 ng/mL", "IC50": "11.2 ± 0.3 µM"}
{"SMILES": "CCC(=O)CCCCC[C@@H]1NC(=O)[C@@H](C)n2nncc2[C@H]([C@@H](C)CC)NC(=O)[C@H](Cc2c[nH]c3ccccc23)NC1=O", "target": "histone deacetylase", "test": "enzyme activity, inhibitor, fluorescence", "test system": "HeLa nuclear extract", "IC50": "< 0.1 µM and ≤ 0.1 µM"}
{"SMILES": "Cc1ccc(CNC(=O)C(CCc2ccccc2)NC(=O)C(NC(=O)c2ccc(OCc3ccc(C(C)(C)C)cc3)cc2)C(C)O)cc1 (stereo not shown)", "target": "proteasome β5 site", "test": "Proteasome-Glo", "test system": "WSUDLCL2", "conditions": "1 h", "IC50": "0.38 µM"}
{"SMILES": "O=C(/C=C/c1ccc(O)c(O)c1)c1ccc(O)cc1O", "target": "HDAC class I, II and IV (human)", "test": "enzyme activity, inhibitor, fluorometric", "test system": "K562 cell extract", "conditions": "1 h, 37 °C", "IC50": "60 µM"}
{"SMILES": "COc1cc(CCC(C)=O)ccc1O", "target": "mouse mAb 1-F12", "test": "antibody binding, indirect competitive ELISA", "conditions": "with: coating antigen 6-OVA", "IC50": "0.22 µg/mL"}
{"SMILES": "C=CC(=O)N1[C@H](c2ccc3c(c2)OCO3)c2[nH]c3ccccc3c2C[C@@H]1C(=O)N1CCN2CCOC[C@@H]2C1", "target": "NLuc-N112C-CCNE1", "test": "probe engagement, gel-based ABPP", "test system": "HEK293T lysate", "conditions": "2 h, with: probe YZ-01-A 10 µM", "IC50": "> 20 µM"}
{"SMILES": "CC(C)NC(=O)[C@H](CCc1ccccc1)NC(=O)[C@H](CC(=O)NCC(C)(C)C)NC(=O)CCc1ccccc1", "target": "proteasome β5 site", "test": "Proteasome-Glo", "test system": "Karpas-1106P", "conditions": "1 h", "IC50": "0.87 µM"}
{"SMILES": "N=C(N)c1ccc(-c2ccc(-c3nc4ccc(C(=N)N)cc4[nH]3)[se]2)cc1", "target": "PU.1", "test": "reporter gene, inhibitor, item: EGFP", "test system": "PU.1-expressing HEK293 cells", "conditions": "24 h", "IC50": "> 100 µM"}
{"SMILES": "COc1ccc(/C=C/C(=O)c2c(O)cc(OC)cc2OC)cc1", "target": "HDAC class I, II and IV (human)", "test": "enzyme activity, inhibitor, fluorometric", "test system": "K562 cell extract", "conditions": "1 h, 37 °C", "IC50": "> 1000 µM"}
{"SMILES": "CCC(=O)CCCCC[C@@H]1NC(=O)[C@@H](CC(C)C)n2cc(nn2)[C@H]([C@@H](C)CC)NC(=O)[C@H](Cc2c[nH]c3ccccc23)NC1=O", "target": "histone deacetylase", "test": "enzyme activity, inhibitor, fluorescence", "test system": "HeLa nuclear extract", "IC50": "~0.2 µM"}
{"SMILES": "CCCCC/C=C/C(=O)CCc1ccc(O)c(OC)c1", "target": "mAb 5-3H1", "test": "antibody binding, indirect competitive ELISA", "conditions": "with: coating antigen 5-OVA", "IC50": "0.311 µg/mL"}
{"SMILES": "c1cc2nc(-c3ccc(-c4nc5ccc(C6=NCCN6)cc5[nH]4)[se]3)[nH]c2cc1C1=NCCN1", "target": "PU.1", "test": "reporter gene, inhibitor, item: EGFP", "test system": "PU.1-expressing HEK293 cells", "IC50": "~0.5 µM"}
{"SMILES": "O=C(/C=C/c1ccccc1O)c1ccccc1", "target": "HDAC class I, II and IV (human)", "test": "enzyme activity, inhibitor, fluorometric", "test system": "K562 cell extract", "conditions": "1 h, 37 °C", "IC50": "> 1000 µM"}
